Measured values pooled from the literature.
Each line is one published result; not all experiments were run side by side. ± marks the error that the study gave.

| SMILES | assay | system | setting | scale | endpoint | value |
| --- | --- | --- | --- | --- | --- | --- |
| COC(=O)N1c2ccc3c(nc(Cc4ccccc4)n3[C@@H]3CCC[C@@H](C(=O)O)C3)c2CC[C@@H]1C | – | mice, breast cancer PDX | oral, 50 mg/kg, 45 days, TNBC, TGI above 60% | – | responding models | 38% |
| CCOC(=O)c1cc2c(N)c(C(=O)OC)sc2nc1C | – | Sprague-Dawley rats | subcutaneous, 100 mg/kg every 8 h, long-term dosing | baseline: vehicle | urine urea concentration | decreased |
| COc1ccc(C2CC(c3ccc(C)cc3)=Nc3ccccc3S2)cc1 (centres unmarked) | – | Wistar rat, STZ-induced diabetes, serum | 20 mg/kg, 28 days | – | LDL cholesterol | 106 mg/dL |
| C=C(c1ccc(C(=O)O)c(F)c1)c1cc2c(cc1C)C(C)(C)C=CC2(C)C | RNA sequencing, refers to: Ccl6 mRNA | rat, brain | dose not given, 24 h, single dose | baseline: vehicle | log2 fold change | -1.68 |
| CCCCCCCCCCCCCCCC(=O)NCCCC[C@H](N)C(=O)N[C@@H](CC(=O)O)C(=O)N[C@H](C(=O)N[C@@H](Cc1c[nH]cn1)C(=O)N[C@@H](Cc1ccccc1)C(=O)N[C@@H](CCCNC(=N)N)C(=O)N[C@H](C(=O)N[C@@H](Cc1ccccc1)C(=O)N[C@@H](CCCNC(=N)N)C(=O)N[C@@H](CO)C(=O)N[C@@H](Cc1c[nH]cn1)C(=O)N[C@@H](CO)C(=O)N[C@@H](CC(=O)O)C(=O)N[C@@H](Cc1ccc(O)cc1)C(=O)N[C@@H](CCCNC(=N)N)C(=O)N[C@@H](CCCNC(=N)N)C(=O)N[C@H](C(=O)O)[C@@H](C)CC)[C@@H](C)O)[C@@H](C)O | – | C57BL/6J mouse, MCD diet | intraperitoneal, 1.2 nmol/g, 3 weeks, 3 times weekly | – | serum total cholesterol | 78.6 ± 12.7 mg/dL |
| CC[C@H]1[C@@H](O)[C@@H]2[C@H](CC[C@]3(C)[C@@H]([C@H](C)CCOS(=O)(=O)[O-])CC[C@@H]23)[C@@]2(C)CC[C@@H](O)C[C@@H]12.[Na+] | – | ob/ob NASH mouse model, plasma | oral, 3 mg/kg once daily, before treatment, baseline of 8 week study | – | ALT activity | 552 ± 36.1 U/L |
| CC(=O)C1=C(C)NC(=O)NC1c1ccc(Cl)cc1 (centres unmarked) | DPPH radical scavenging | – | – | baseline: gallic acid | antioxidant potency ratio | ~2.5 fold |
| CCOP(=O)(CC(=O)Nc1ccc(S(=O)(=O)N(CC(N)=O)c2ccc(N(CC(N)=O)S(=O)(=O)c3ccc(OC)cc3)c3ccccc23)cc1)OCC | Western blot | APP/PS1 mice, hippocampus and frontal cortex | 40 mg/kg | baseline: untreated APP/PS1 mice | NQO1 protein level | increased |
| Cc1cc(O)c(C=O)c2c1C(=O)Oc1c(CO)c(O)c3c(c1O2)C(O)OC3=O (centres unmarked) | copulatory behaviour test | rat, male, streptozotocin-induced diabetes | 10 mg/kg, day 63 | – | Mount latency | 480 ± 35.2 s |
| CCCCCCCOC(=O)Cc1c(C)n(C(=O)c2ccc(Cl)cc2)c2ccc(OC)cc12 | hot plate test | BALB/c mice | 75 mg/kg, 60 min | – | latency of nociceptive response | 16.4 ± 0.74 s |
| COC(=O)[C@H](CSSC(C)(C)[C@H](NC(=O)[C@H](CCC(=O)NC[C@H](O)[C@@H](O)[C@H](O)[C@H](O)CO)NC(=O)[C@H](CCC(=O)O)NC(=O)[C@H](CCC(=O)NC[C@H](O)[C@@H](O)[C@H](O)[C@H](O)CO)NC(=O)[C@H](CCC(=O)O)NC(=O)[C@H](CCC(=O)NC[C@H](O)[C@@H](O)[C@H](O)[C@H](O)CO)NC(=O)CC[C@H](NC(=O)c1ccc(NCc2cnc3nc(N)[nH]c(=O)c3n2)cc1)C(=O)O)C(=O)O)NC(=O)CC[C@H](NC(=O)c1ccc(NCc2cnc3nc(N)nc(N)c3n2)cc1)C(=O)O | – | Lewis rat, adjuvant-induced arthritis | subcutaneous, 500 nmol/kg twice weekly × 2, from day 9 after induction | – | spleen weight increase | ~55% |

A few entries again:
| SMILES | assay | system | setting | scale | endpoint | value |
| --- | --- | --- | --- | --- | --- | --- |
| COC(=O)N1c2ccc3c(nc(Cc4ccccc4)n3[C@@H]3CCC[C@@H](C(=O)O)C3)c2CC[C@@H]1C | – | mice, breast cancer PDX | oral, 50 mg/kg, 45 days, TNBC, TGI above 60% | – | responding models | 38% |
